Measurements gathered from unrelated publications.
Compare with care: the assays were run in different laboratories. ± gives the spread as reported.
Tumor necrosis factor receptor superfamily member 9/Nectin-4: Tumor necrosis factor receptor superfamily member 9/Nectin-4 (Homo sapiens, UniProt Q07011+Q96NY8)
Sequence of UniProt Q96NY8 (whole entry, looked up): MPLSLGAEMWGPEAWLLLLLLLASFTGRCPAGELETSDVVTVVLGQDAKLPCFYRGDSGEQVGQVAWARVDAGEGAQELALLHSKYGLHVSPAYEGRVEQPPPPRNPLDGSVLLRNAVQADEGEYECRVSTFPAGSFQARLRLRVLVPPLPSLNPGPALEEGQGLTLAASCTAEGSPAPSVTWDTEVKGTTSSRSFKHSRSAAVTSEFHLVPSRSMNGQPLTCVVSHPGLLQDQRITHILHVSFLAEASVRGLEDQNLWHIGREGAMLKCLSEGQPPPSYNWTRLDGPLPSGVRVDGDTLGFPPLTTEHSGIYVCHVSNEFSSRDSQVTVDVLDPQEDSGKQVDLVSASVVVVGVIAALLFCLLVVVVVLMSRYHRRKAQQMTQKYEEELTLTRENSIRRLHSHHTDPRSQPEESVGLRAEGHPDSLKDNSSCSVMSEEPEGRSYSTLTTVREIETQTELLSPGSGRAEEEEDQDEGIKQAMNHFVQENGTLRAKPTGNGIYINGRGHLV
Sequence of UniProt Q07011 (whole entry, looked up): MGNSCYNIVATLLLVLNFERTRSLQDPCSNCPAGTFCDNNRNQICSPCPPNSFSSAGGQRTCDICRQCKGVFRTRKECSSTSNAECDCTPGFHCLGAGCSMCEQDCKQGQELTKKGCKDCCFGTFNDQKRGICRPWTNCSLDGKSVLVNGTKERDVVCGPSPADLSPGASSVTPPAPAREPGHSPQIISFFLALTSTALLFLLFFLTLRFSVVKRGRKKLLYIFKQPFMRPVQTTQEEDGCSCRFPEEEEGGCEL
ABCG2: Broad substrate specificity ATP-binding cassette transporter ABCG2 (ABCG2, Homo sapiens, UniProt Q9UNQ0)
Sequence of UniProt Q9UNQ0 (whole entry, looked up): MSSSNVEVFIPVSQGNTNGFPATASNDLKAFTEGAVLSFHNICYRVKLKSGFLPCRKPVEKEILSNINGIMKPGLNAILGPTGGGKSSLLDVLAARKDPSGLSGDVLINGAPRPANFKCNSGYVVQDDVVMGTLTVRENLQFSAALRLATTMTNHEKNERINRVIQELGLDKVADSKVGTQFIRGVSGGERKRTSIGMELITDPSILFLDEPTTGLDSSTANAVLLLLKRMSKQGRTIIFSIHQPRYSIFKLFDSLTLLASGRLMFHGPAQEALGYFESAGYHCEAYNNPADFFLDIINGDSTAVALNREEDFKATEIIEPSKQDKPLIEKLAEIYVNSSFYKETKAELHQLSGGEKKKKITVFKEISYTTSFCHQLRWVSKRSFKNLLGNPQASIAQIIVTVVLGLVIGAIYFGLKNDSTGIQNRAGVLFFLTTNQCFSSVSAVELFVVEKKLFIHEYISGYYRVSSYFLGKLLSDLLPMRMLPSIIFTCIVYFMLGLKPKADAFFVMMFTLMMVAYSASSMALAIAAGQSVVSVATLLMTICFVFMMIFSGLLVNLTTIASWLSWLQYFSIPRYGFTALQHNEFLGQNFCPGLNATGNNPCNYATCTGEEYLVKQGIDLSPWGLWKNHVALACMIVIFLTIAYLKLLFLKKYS
SLC22A6: Solute carrier family 22 member 6 (SLC22A6, Homo sapiens, UniProt Q4U2R8)
Sequence of UniProt Q4U2R8 (whole entry, looked up): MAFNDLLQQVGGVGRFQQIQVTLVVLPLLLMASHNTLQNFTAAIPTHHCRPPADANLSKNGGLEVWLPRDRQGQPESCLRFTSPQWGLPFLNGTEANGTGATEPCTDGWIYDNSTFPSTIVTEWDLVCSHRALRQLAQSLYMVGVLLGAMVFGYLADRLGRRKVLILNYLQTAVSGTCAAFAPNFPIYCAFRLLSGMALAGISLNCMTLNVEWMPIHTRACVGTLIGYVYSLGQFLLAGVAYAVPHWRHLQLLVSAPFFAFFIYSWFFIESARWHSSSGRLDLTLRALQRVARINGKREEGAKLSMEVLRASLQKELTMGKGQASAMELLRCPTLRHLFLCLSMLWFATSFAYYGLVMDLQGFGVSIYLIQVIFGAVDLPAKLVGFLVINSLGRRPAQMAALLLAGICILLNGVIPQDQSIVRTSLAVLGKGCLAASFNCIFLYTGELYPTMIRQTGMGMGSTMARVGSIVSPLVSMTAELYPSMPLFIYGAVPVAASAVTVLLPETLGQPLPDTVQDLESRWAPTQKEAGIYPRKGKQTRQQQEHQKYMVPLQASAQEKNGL
Sequence of UniProt Q9NPD5 (whole entry, looked up): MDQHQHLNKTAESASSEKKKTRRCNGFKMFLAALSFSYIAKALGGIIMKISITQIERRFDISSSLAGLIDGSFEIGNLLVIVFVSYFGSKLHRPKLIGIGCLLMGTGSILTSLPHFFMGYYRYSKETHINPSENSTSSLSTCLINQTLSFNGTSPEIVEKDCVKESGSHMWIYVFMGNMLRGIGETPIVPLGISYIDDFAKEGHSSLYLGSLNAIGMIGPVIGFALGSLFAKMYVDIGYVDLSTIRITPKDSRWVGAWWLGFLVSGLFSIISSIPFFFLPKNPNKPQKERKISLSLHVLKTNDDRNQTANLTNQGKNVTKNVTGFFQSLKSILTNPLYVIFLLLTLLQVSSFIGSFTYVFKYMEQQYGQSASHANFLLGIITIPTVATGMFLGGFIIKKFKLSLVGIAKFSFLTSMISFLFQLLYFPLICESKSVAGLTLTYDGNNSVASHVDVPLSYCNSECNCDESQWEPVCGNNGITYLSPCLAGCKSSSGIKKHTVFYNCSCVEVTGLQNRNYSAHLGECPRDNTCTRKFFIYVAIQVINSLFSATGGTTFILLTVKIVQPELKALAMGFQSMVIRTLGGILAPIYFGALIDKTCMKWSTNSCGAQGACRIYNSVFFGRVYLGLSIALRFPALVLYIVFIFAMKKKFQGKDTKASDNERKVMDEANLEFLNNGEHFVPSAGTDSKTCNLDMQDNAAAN
Sequence of UniProt Q86VL8 (whole entry, looked up): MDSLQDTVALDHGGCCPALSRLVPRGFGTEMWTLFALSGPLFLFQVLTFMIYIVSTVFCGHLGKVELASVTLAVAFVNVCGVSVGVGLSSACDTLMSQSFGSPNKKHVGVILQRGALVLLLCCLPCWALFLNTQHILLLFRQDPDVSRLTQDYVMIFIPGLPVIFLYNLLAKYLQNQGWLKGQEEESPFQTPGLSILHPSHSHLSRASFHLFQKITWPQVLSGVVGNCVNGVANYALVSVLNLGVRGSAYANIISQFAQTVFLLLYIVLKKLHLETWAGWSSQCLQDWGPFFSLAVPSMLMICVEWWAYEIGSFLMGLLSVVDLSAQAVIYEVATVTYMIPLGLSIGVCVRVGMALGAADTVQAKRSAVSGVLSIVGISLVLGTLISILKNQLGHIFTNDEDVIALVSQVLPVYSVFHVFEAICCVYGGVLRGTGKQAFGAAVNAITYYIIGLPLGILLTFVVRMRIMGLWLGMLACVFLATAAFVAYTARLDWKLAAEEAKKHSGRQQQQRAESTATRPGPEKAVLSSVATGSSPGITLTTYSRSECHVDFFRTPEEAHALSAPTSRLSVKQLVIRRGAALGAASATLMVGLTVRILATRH
Sequence of UniProt Q05421 (whole entry, looked up): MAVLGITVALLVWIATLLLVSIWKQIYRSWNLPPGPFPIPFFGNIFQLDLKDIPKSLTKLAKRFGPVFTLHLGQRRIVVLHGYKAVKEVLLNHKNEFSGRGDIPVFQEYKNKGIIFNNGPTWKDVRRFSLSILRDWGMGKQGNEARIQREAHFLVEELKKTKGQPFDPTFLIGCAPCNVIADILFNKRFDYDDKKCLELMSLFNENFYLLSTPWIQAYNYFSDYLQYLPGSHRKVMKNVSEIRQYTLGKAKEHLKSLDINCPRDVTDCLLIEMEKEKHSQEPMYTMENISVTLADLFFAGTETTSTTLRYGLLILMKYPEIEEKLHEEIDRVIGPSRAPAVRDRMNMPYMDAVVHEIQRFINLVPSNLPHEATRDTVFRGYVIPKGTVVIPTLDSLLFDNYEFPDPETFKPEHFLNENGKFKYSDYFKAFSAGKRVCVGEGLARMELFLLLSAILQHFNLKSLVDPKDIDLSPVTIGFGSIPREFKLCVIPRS
Sequence of UniProt P33261 (whole entry, looked up): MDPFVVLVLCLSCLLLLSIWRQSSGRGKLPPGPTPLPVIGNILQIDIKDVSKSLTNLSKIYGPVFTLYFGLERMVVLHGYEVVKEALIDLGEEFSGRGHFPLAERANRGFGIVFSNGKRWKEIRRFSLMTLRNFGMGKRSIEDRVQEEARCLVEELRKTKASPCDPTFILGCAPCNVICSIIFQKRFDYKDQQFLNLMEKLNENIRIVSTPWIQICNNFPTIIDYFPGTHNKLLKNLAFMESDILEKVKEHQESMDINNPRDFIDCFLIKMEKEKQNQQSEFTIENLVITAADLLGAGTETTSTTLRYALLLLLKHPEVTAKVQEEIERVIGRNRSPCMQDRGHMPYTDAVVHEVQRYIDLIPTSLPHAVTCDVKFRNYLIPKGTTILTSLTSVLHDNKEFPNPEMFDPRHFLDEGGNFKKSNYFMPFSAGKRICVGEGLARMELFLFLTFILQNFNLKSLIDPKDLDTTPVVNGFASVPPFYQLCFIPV

Structure (SMILES)	tested on	assay	test system	setting	how to read	quantity	result
O=C(Nc1cccnn1)N1CCC(=Cc2cccc(Oc3ccc(C(F)(F)F)cn3)c2)CC1	Cytochrome P450 2C19 (CYP2C19, Homo sapiens, UniProt P33261)	enzyme activity, inhibitor		50 µM, added: 3-cyano-7-ethoxycoumarin substrate		inhibition	89%
O=C(NCc1ccccc1Cl)C1CCCN(Cc2cccc(-c3ccc(F)cc3F)c2)C1 (stereo not shown)	Vero-E6	CellTiter-Glo ATP		72 h, first round 5-point	baseline: DMSO 0%, hyamine -100%, more negative, more toxic	maximum response	-14.1%
COC(=O)c1cc(O)c(O)c(O)c1	β-glucuronidase Helix pomatia			concentration not given, 6 h, pH 7.4, glucuronide hydrolysis	baseline: untreated control	aglycone concentration increase	≥ 1.25 fold
CC1(C)[C@H](C=C(Cl)Cl)[C@H]1C(=O)OCc1cccc(Oc2ccccc2)c1	CES2 human cytosolic			0.1 µM, age 5 years		enzyme contribution	8.87%
NC(=O)c1nc(F)c[nH]c1=O	Solute carrier organic anion transporter family member 1B3 (SLCO1B3, Homo sapiens, UniProt Q9NPD5)	transport, inhibitor	transiently transfected cells	100 µM, 10 (unit not given), added: CCK-8		inhibition	58.1%
CCCC[C@@H]1NC(=O)[C@H](Cc2ccc(O)cc2)NC(=O)[C@@H]2CCCN2C(=O)[C@H](CC(=O)O)NC(=O)[C@H](C)NC(=O)[C@H](Cc2ccccc2)NC(=O)[C@@H]2CSCCC(=O)N3CN(CN(C3)C(=O)CCSC[C@@H](C(=O)N[C@@H](C)C(N)=O)NC1=O)C(=O)CCSC[C@H](NC(=O)[C@H](C)NC(C)=O)C(=O)N[C@@H]([C@@H](C)CC)C(=O)N[C@@H](CCC(=O)O)C(=O)N[C@@H](CCC(=O)O)C(=O)N[C@H](CCCCNC(=O)CCc1cn(CCOCCOCCOCCN(CCOCCOCCOCCC(=O)N[C@H]3CSCCC(=O)N4CN5CN(C4)C(=O)CCSC[C@H](NC(=O)[C@@H](CC(=O)O)NC(=O)[C@H](Cc4cccc6ccccc46)NC(=O)[C@@H]4CCCN4C3=O)C(=O)N[C@@H](CCSC)C(=O)N[C@@H](CCCCNC(=N)N)C(=O)N[C@@H](CC(=O)O)C(=O)N[C@@H](Cc3c[nH]c4ccccc34)C(=O)N[C@@H](CO)C(=O)N[C@@H]([C@@H](C)O)C(=O)N3CCC[C@H]3C(=O)N3C[C@H](O)C[C@H]3C(=O)N[C@@H](Cc3c[nH]c4ccccc34)C(=O)N[C@H](C(N)=O)CSCCC5=O)CCOCCOCCOCCn3cc(CCC(=O)NCCCC[C@H]4NC(=O)[C@H](CCC(=O)O)NC(=O)[C@H](CCC(=O)O)NC(=O)[C@H]([C@@H](C)CC)NC(=O)[C@@H](NC(=O)[C@H](C)NC(C)=O)CSCCC(=O)N5CN6CN(C5)C(=O)CCSC[C@H](NC(=O)[C@H](Cc5ccc(O)cc5)NC(=O)[C@H](CCC(N)=O)NC4=O)C(=O)N[C@@H](Cc4ccccc4)C(=O)N[C@@H](C)C(=O)N[C@@H](CC(=O)O)C(=O)N4CCC[C@H]4C(=O)N[C@@H](Cc4ccc(O)cc4)C(=O)N[C@@H](CCCC)C(=O)N[C@H](C(=O)N[C@@H](C)C(N)=O)CSCCC6=O)nn3)nn1)C(=O)N[C@@H](CCC(N)=O)C(=O)N[C@@H](Cc1ccc(O)cc1)C(=O)N2	Tumor necrosis factor receptor superfamily member 9/Nectin-4	reporter gene, agonist, luciferase reporter	CD137 Jurkat reporter with HT-1376	6 h, geometric mean	baseline: wells without compound	Emax	46 fold
COc1cc2nc(N3CCN(C(=O)c4ccco4)CC3)nc(N)c2cc1OC	Multidrug and toxin extrusion protein 2 (SLC47A2, Homo sapiens, UniProt Q86VL8)	transport, inhibitor	transiently transfected cells	100 µM, 10 (unit not given), added: thiamine		inhibition	115%
CCCC[C@@H]1NC(=O)[C@H](Cc2ccc(O)cc2)NC(=O)[C@@H]2CCCN2C(=O)[C@H](CC(=O)O)NC(=O)[C@H](C)NC(=O)[C@H](Cc2ccccc2)NC(=O)[C@@H]2CSCCC(=O)N3CN(CN(C3)C(=O)CCSC[C@@H](C(=O)N[C@@H](C)C(N)=O)NC1=O)C(=O)CCSC[C@H](NC(C)=O)C(=O)N[C@@H](CC(C)(C)C)C(=O)N1CCC[C@H]1C(=O)N[C@@H](CCC(=O)O)C(=O)N[C@H](CCCCNC(=O)CCc1cn(CCOCCOCCOCCOCCOCCC(=O)NCCCC[C@H]3NC(=O)[C@H](Cc4cccc5ccccc45)NC(=O)[C@@H]4CCCN4C(=O)[C@@H](NC(C)=O)CSCCC(=O)N4CN5CN(C4)C(=O)CCSC[C@H](NC3=O)C(=O)N[C@@H](CCSC)C(=O)N[C@@H](CCCCNC(=N)N)C(=O)N[C@@H](CCC(=O)O)C(=O)N[C@@H](Cc3c[nH]c4ccccc34)C(=O)N[C@@H](CO)C(=O)N[C@@H]([C@@H](C)O)C(=O)N3CCC[C@H]3C(=O)N3C[C@H](O)C[C@H]3C(=O)N[C@@H](Cc3c[nH]c4ccccc34)C(=O)N[C@H](C(N)=O)CSCCC5=O)nn1)C(=O)N1CCC[C@H]1C(=O)N[C@@H](Cc1ccc(O)cc1)C(=O)N2	Tumor necrosis factor receptor superfamily member 9/Nectin-4	reporter gene, agonist, luciferase reporter	CD137 Jurkat reporter with HT-1376	6 h, geometric mean	baseline: wells without compound	Emax	42 fold
CC(C)(C)N1CCC(c2ccccc2)(c2ccccc2)CC1	Vero-E6	CellTiter-Glo ATP		concentration not given, 72 h, retest 8-point duplicates	baseline: DMSO 0%, hyamine -100%, more negative, more toxic	cytotoxicity efficacy	0%
CC1(C)[C@H](C(=O)O[C@H](C#N)c2cccc(Oc3ccccc3)c2)[C@@H]1C=C(Br)Br	ABCG2	inhibition, inhibitor		0.03 to 100 µM, added: sulfasalazine 10 µM		BCRP ATPase activity	no inhibition
COc1ccc2cc1Oc1ccc(cc1)C[C@H]1c3cc(c(OC)cc3CCN1C)Oc1c(OC)c(OC)cc3c1[C@H](C2)N(C)CC3	SLC22A6	transport, inhibitor		10 µM, added: PAH		inhibition	24.8%
CCCC[C@@H]1NC(=O)[C@H](Cc2ccc(O)cc2)NC(=O)[C@@H]2CCCN2C(=O)[C@H](CC(=O)O)NC(=O)[C@H](C)NC(=O)[C@H](Cc2ccccc2)NC(=O)[C@@H]2CSCCC(=O)N3CN(CN(C3)C(=O)CCSC[C@H](NC(C)=O)C(=O)N[C@@H](CC(C)(C)C)C(=O)N[C@@H](CCC(=O)O)C(=O)N[C@@H](CCC(=O)O)C(=O)N[C@H](CCCCNC(=O)CCc3cn(CCOCCOCCOCCOCCOCCC(=O)N[C@H]4CSCCC(=O)N5CN6CN(C5)C(=O)CCSC[C@H](NC(=O)[C@@H](CC(=O)O)NC(=O)[C@H](Cc5cccc7ccccc57)NC(=O)[C@@H]5CCCN5C4=O)C(=O)N[C@@H](CCSC)C(=O)N[C@@H](CCCCNC(=N)N)C(=O)N[C@@H](CC(=O)O)C(=O)N[C@@H](Cc4c[nH]c5ccccc45)C(=O)N[C@@H](CO)C(=O)N[C@@H]([C@@H](C)O)C(=O)N4CCC[C@H]4C(=O)N4C[C@H](O)C[C@H]4C(=O)N[C@@H](Cc4c[nH]c5ccccc45)C(=O)N[C@H](C(N)=O)CSCCC6=O)nn3)C(=O)N3CCC[C@H]3C(=O)N[C@@H](Cc3ccc(O)cc3)C(=O)N2)C(=O)CCSC[C@@H](C(N)=O)NC1=O	Tumor necrosis factor receptor superfamily member 9/Nectin-4	reporter gene, agonist, luciferase reporter	CD137 Jurkat reporter with HT-1376	6 h, geometric mean	baseline: wells without compound	Emax	44 fold
O=C(O)C(F)(F)C(F)(F)C(F)(F)C(F)(F)C(F)(F)C(F)(F)C(F)(F)F	SLC22A6	uptake, substrate	HEK293 cells stably expressing SLC22A6, HBSS with HEPES	pH 7.4		CLint	9.67 ± 3.3 µL/min/mg
CC1(C)C(C=C(Cl)Cl)C1C(=O)OC(C#N)c1ccc(F)c(Oc2ccccc2)c1 (stereo not shown)	CES2 human cytosolic			0.1 µM, age 5 years		enzyme contribution	0.31%
CCOC(=O)C1=C[C@@H](OC(CC)CC)[C@H](NC(C)=O)[C@@H](N)C1	ABCG2	transport, inhibitor		100 µM, 5 (unit not given), pH 7, added: CCK-8		inhibition	7.2%
C=CC(O)CO (stereo not shown)	Cytochrome P450 2E1 (Cyp2e1, Mus musculus, UniProt Q05421)	4-nitrophenol hydroxylation, inhibitor	B6C3F1 mouse, liver microsomes	25 mM, 30 min, added: 4-nitrophenol 50 µM		remaining activity	15%

Some of these lines once more:
Structure (SMILES)	tested on	assay	test system	setting	how to read	quantity	result
O=C(NCc1ccccc1Cl)C1CCCN(Cc2cccc(-c3ccc(F)cc3F)c2)C1 (stereo not shown)	Vero-E6	CellTiter-Glo ATP		72 h, first round 5-point	baseline: DMSO 0%, hyamine -100%, more negative, more toxic	maximum response	-14.1%
COC(=O)c1cc(O)c(O)c(O)c1	β-glucuronidase Helix pomatia			concentration not given, 6 h, pH 7.4, glucuronide hydrolysis	baseline: untreated control	aglycone concentration increase	≥ 1.25 fold
